Measurements from different studies.
Compare with care: the assays were run in different laboratories. ± marks the error that the study gave.
Cell line: Caco-2

O=C(O)c1cccc(CP(=O)(O)O)n1 — EC50 (membrane integrity, CFDA-AM; 24 h, without 10% FBS): > 250 mg/L
N#Cc1ccc(N2N=C3c4ccc(C(=O)O)cc4CCC3C2C2CCCC2)cc1Cl (centres unmarked) — apparent permeability B to A (10 µM, 2 h): 4.8 ×10⁻⁶ cm/s
O=C(N[C@@H](Cc1ccccc1)C(=O)N[C@@H](C[C@@H]1CCNC1=O)C(O)S(=O)(=O)O)OCc1ccccc1 (some centres unmarked) — CC50 (5 (unit not given)): 146 ± 9.1 µM
C[C@@H]1O[C@@H](O[C@@H]2[C@@H](O)[C@H](O)[C@@H](CO)O[C@H]2c2c(O)cc(O)c3c(=O)cc(-c4ccc(O)cc4)oc23)[C@H](O)[C@H](O)[C@H]1O — viability (CCK-8; 10 µM, 24 h): 106%
Cc1cc(-c2ccc3ccccc3c2)nnc1NCCN1CCN(C)CC1 — Papp B-A (5 µM, 0.5 h): 17.2 ×10⁻⁶ cm/s
CCC1CC(c2ccc(C(=O)O)cc2C)=NN1c1ccc(C#N)c(Cl)c1 (centres unmarked) — apparent permeability A to B (10 µM, 2 h): 9.7 ×10⁻⁶ cm/s
C#CCN(Cc1ccc2nc(C)[nH]c(=O)c2c1)C(=O)NC(CSCC(N)=O)c1cccc([N+](=O)[O-])c1 (centres unmarked) — efflux ratio (relative to: B-A over A-B): 65
Cc1ccc(CNC(=O)c2ccn3c(-c4ccc(C#N)cc4)cnc3c2)cn1 — Papp: 1.78 ×10⁻⁶ cm/s

For quick reference, copied from above:
N#Cc1ccc(N2N=C3c4ccc(C(=O)O)cc4CCC3C2C2CCCC2)cc1Cl (centres unmarked) — apparent permeability B to A (10 µM, 2 h): 4.8 ×10⁻⁶ cm/s
